Measured values of several laboratories.
Each numbered part is a random draw from the data of one study; scales do not carry over between parts. Changes are numbered by the printed parent chain.

Study 1
Target: Eukaryotic initiation factor 4A-I (EIF4A1, Homo sapiens, UniProt P60842, residues 1-406, full length assumed)
Chain of UniProt P60842 (whole entry, looked up): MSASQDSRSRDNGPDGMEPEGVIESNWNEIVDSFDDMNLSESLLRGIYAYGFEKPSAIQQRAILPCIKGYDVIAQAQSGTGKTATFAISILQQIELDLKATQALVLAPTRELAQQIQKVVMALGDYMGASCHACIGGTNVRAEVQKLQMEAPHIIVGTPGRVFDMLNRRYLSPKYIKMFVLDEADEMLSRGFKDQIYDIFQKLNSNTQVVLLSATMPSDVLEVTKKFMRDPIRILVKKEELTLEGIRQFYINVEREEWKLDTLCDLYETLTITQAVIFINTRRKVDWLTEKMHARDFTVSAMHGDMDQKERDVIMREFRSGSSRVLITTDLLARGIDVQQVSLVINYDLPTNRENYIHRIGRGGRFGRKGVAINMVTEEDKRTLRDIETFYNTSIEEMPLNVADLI
Technique: RNA Bind-n-Seq
Molecule type: RNA
Matrix: in vitro
Concentration: 90 pmol
Notes: 4-mer, random 30-nt RNA, single round
Together with: 3 µM iPr-DMDA-PatA, 2 mM ADP, 2 mM phosphate
Relative to: input library
Direction: higher = stronger binding
Quantity: 4-mer enrichment
GAUG: 0.986 fold
GGGG: 0.496 fold
ACCU: 1.07 fold
ACUC: 1.07 fold
UUAU: 1.21 fold
GGAG: 0.841 fold
CCGU: 0.812 fold
GUGA: 1.02 fold
CCCC: 0.973 fold
UACA: 1.19 fold
ACCA: 1.21 fold
GGUC: 0.785 fold
ACAG: 1.09 fold
CACC: 0.995 fold
UCAC: 1.08 fold
CUGG: 0.73 fold
GAGC: 0.934 fold
CGCC: 0.746 fold
UGUC: 0.922 fold
AACA: 1.36 fold
UUCC: 0.987 fold
AUAG: 1.24 fold

Study 2
Target: Sal-like protein 4, full length isoform A (SALL4, Homo sapiens, UniProt Q9UJQ4, residues 1-1053)
Chain of UniProt Q9UJQ4 (whole entry, looked up): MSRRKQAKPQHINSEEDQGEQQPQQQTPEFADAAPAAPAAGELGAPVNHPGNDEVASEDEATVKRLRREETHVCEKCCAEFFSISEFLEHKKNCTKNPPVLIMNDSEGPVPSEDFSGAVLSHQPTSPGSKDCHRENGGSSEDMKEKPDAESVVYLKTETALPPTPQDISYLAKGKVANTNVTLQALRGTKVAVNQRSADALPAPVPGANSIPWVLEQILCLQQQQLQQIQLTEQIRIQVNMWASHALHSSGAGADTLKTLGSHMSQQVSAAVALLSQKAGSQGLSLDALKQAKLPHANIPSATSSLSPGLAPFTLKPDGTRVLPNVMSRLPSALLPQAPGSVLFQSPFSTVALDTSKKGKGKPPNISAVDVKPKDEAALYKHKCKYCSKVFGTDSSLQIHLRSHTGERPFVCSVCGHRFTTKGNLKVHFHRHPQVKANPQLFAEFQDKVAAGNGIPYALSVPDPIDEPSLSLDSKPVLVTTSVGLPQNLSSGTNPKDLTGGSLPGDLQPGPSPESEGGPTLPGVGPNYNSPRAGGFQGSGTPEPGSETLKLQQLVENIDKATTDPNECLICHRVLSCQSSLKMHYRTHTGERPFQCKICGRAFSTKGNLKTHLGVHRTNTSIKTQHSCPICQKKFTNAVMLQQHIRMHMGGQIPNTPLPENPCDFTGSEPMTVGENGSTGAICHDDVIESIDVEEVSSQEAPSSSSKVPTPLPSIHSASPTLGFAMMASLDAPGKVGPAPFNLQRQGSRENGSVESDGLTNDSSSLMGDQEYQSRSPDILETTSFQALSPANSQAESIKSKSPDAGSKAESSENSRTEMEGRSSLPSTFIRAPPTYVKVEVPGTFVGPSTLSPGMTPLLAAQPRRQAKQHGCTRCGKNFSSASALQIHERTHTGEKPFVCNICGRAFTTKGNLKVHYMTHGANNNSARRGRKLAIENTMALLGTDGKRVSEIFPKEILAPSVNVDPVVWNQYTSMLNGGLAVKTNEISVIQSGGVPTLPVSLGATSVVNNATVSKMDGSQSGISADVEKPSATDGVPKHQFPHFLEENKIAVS
Technique: universal PBM
Molecule type: double-stranded DNA, one strand shown
Matrix: in vitro
Concentration: 600 nM
Notes: 8-mer, flanks averaged, mean of replicates
Direction: higher = stronger binding
Quantity: E-score
GAGTATCA: 0.00899
CCGTTTAA: 0.114
GGTCTTAC: -0.0969
ATTTCCAC: 0.181
CGCACAAC: 0.00093
CTAACGAC: -0.0297
CGTTCGAA: 0.0315
GAGACCAC: -0.166
GAGCTTGC: -0.261
TGAAGACA: 0.136
CGGCCCAA: -0.252
CAAAACAA: 0.227
CCTTCCAG: -0.207
TCAGATCA: -0.0123
AGAACCGC: -0.0712
AGCGGAAG: -0.153
GCCCCATA: -0.0911
ACGACCGA: -0.168
TAATGAGA: 0.249
AAATTGTC: 0.166
ACCTACCC: -0.27
ATTAGCTA: 0.131
AACGTCCG: -0.282
ACTTTAGA: 0.108
CCAGTTGA: -0.192

Study 3
Target: Centromere-binding protein 1, full length, His-tagged (CBF1, Saccharomyces cerevisiae, UniProt P17106, residues 1-351)
Chain of UniProt P17106 (whole entry, looked up): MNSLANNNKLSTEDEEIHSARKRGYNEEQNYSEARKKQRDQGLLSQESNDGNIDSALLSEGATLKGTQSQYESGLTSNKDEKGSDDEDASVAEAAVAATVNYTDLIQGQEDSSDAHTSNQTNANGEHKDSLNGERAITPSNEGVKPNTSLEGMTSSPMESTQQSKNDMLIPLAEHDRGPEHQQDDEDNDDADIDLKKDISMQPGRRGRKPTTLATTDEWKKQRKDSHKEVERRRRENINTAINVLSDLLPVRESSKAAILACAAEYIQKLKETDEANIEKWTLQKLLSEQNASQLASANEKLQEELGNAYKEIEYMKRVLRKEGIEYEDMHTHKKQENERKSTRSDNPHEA
Technique: competition protein-binding microarray
Molecule type: double-stranded DNA, one strand shown
Matrix: in vitro
Concentration: 2 µM
Notes: whole 60-bp probe, lowest competitor level
Together with: Pho4 competitor, 0.05 µM
Direction: higher = stronger binding
Quantity: fluorescence intensity
Constant ends, left off below: … GTCTTGATTCGCTTGACGCTGCTG
AAGCAAGGTGATGTTCAGCTGACCGGCAGCATCGGC: 145 a.u.
CTAACGAAGGTTTGTCAGGTGGGTGACAAGCCAAGT: 137 a.u.
CGTCCTAGTGATTGTCACTAGACTTCCATGAGGAAG: 73 a.u.
CTAACGAAGGTTTGTAGTGTGGGTGACAAGCCAAGT: 62.1 a.u.
GGCTATTGAATCTCCAACGTGACGGTCGGTGAGAAT: 206 a.u.
CAACTAAAATGTCCAGACATGATGTTAAGCGGAAGG: 71.4 a.u.
AAGATTGGACTTCGGCACGGGCCTCGAACTTTCGTT: 80.8 a.u.
AACAACCGCCTCGACCACGCACCAAAGAGCTGTTAA: 56.5 a.u.
TGCGCAACAACTTGTTTGGTGGGTGTATGTCTAGAA: 67.9 a.u.
CGTCCTAGTGATTGTTTTGTGGGTGCCATGAGGAAG: 92.7 a.u.
CTAACGAAGGTTTGGTCGGTGGGTGACAAGCCAAGT: 62.2 a.u.
CTTTCCCGATCTTGATGGGTGGGTGTAGCACATTTG: 60.2 a.u.
CTTTCCCGATCTTGTCACTAGACTTTAGCACATTTG: 83.5 a.u.
CTAACGAAGGTTTTTCACGTGCGGTACAAGCCAAGT: 720 a.u.
TGCGTTAAAACGGCCAATGTGACAGTAGTTCACTCG: 104 a.u.
GCAGTGCATAAGAGTGACCTGCGGCCAAGAACCCTA: 55.6 a.u.
CCCGTCCATTGAGTGCCCGTGCCGAATCAAGCTAAA: 87.9 a.u.
CTAACGAAGGTTTGGCGAGTGGGTGACAAGCCAAGT: 66.1 a.u.
TGTATGAGAGTGGTCGATTTCAATCGGCAACATTCT: 62.3 a.u.

Study 4
Target: CCND1, cyclin fold, Cln2 fusion (human)
Technique: yeast growth competition, sequencing
Matrix: yeast
Notes: weak parent motif
Relative to: not given
Direction: higher = stronger binding
Quantity: normalised enrichment score
Starting sequence: CDC6 docking peptide (human); TLKGRRLVFDNQL
L13Y: 0.339
G4L: -0.233
K3A: 0.432
R5N: 0.793
N11Y: 0.859
L13K: -0.555
N11S: 0.0624
R5V: 0.637
T1R: -0.404
F9Q: -0.118
D10S: 0.413
N11T: 0.765
L13E: 1.09
R5Y: -0.131
K3M: -0.0153
F9R: -0.44
F9M: -0.207
N11E: 0.807
L7T: -0.327
D10G: -0.216
R6H: 0.315
R5A: 0.653
G4I: 0.645
D10Q: -0.406
G4D: 1.02

Study 5
Target: RNA binding protein fox-1 homolog 2, RRM domain, GST-SBP tag (RBFOX2, Homo sapiens, UniProt O43251-10, residues 100-194)
Technique: RNA Bind-n-Seq
Molecule type: RNA
Matrix: in vitro
Concentration: 365 nM
Notes: natural RNA segment, single round, ends assumed
Relative to: no-protein control
Direction: higher = stronger binding
Quantity: RBNS enrichment (R)
Constant ends, left off below: GGGAGUUCUACAGUCCGACGAUC … UGGAAUUCUCGGGUGCCAA
Construct (chain): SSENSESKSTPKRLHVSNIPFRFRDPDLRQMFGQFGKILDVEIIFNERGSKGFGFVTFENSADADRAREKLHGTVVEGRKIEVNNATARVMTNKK
UUUAUCUUACGAAGUAGCUACAGGGUUCUAGCAGUUUCCAGAAUAUAAUGUAGGGGGAUAGCGGGAUAUUUUUGUUUGUGUUCUUGUAAUAUAUUAUCCUUCCUUGGUUC: 1.16
CUCAGGCCUGGAAGUGAAAGCCGCCUCCUUCCCGUUAUGCCCCCCAUACAGGAGCCUCGGUUUUUCAGCAAAACGCGGCCAGUCCCCUUCUCCACUGCUGCCUCCCAGCA: 1.11
GUGUGCCCAGCCACUAAAGCACUCUGGACUAAUCGCUAAAGAGAAGCAACGUGGGGGGUGGGGUUGCGAGGGAUGUGUUCACAUGUACCCAUCAUUUGAUCAUAGCACUG: 0.332
GGCAGAAAUGAAGGGAUUUCAUUUGAACUUAGAGCAUGAUGAAUUUGAGUGGGUGCACAGGAAGCAGCUAGCGGAUAGGAAGGCACUCUGCUCUGUGAUGGCAAGUGAAG: 10.1
GGUGUUUCCUGGCUGUUAUGACCUGCUGUCCACCCCUCCUCAACAUCGAGCUCUGUUGUAAAUACGUCGCACCAGAGGCCACUGUGAUGCCACUGUCUCCUCUCCAUCCC: 0.587
AGAGUUGUCGAGCCUUGGAAUUGAUGCAGCUGUGUAGUGAGAACACAUUUGGCCAUAUUGGUGCUGCUGUACCAUAGUGUAGACUUUUACAGCUGUGAGGGUGGCUAUUG: 0.593
ACAUGUUGGUUUCACUCACCCAGAGUAAUUUUGUGAGCAUGCAUGUGCUUUUUAAUUUCUGCUUGAAUGUUUGUCCUGCUGUGUUGCAGCUUCUAAAGACAUUGUCACCG: 4.57
CUGAGAGGUUCUUGCCUGCAGGAGAAGCUGUCACAUCUCAAGCAUGUGAGGCACCGUUUUUCUCGUCGCUUGCCAAUCUGUUUUUUAAAGGAUCAGGCUCGUAGGGAGCA: 2.04
AGACAGGGUUUCACCAUAUUAGCCAGGAUGGUCUCGAUCUCCUGACCUCGUGAUCCGCCCACCUCGGCCUCCCAAAGUGCUGGGAUUACAGGCGUGAGCCACCACGCCCA: 0.199
GGAACGCAUCCCACCUUGCCAAAGCACUCAUACCAGUCGACUGUGCUCACUAGCAGGACACUGAAGGGUGUCCUUCAUCAUUAAGGCAGUGUGAUGUCAUGUUUGGUCAU: 0.364
CGUUAAGUGUAAGGUAAAUUAUGUUCUCGAUGCCUCCUAAUCAAACCACUUAGGUUAGAAAGAAACAGGAAUCAUCCUAGGCAGGAAAAUUACUCCACUUUUUUUUAAGU: 0.329
UAUAGUGGCUUUAUCCUGACAUAGGAAAGUUCAGCUGCAGGGGAGGAGGAGGAGACAGUCUUCCUCUUUAAGUUACAGAGAGCCGUAAGCUAAAGGACCUGCCUAGGAUU: 0.309

Study 6
Target: Ras GTPase-activating protein-binding protein 1, full length (G3BP1, Homo sapiens, UniProt Q13283)
Chain of UniProt Q13283 (whole entry, looked up): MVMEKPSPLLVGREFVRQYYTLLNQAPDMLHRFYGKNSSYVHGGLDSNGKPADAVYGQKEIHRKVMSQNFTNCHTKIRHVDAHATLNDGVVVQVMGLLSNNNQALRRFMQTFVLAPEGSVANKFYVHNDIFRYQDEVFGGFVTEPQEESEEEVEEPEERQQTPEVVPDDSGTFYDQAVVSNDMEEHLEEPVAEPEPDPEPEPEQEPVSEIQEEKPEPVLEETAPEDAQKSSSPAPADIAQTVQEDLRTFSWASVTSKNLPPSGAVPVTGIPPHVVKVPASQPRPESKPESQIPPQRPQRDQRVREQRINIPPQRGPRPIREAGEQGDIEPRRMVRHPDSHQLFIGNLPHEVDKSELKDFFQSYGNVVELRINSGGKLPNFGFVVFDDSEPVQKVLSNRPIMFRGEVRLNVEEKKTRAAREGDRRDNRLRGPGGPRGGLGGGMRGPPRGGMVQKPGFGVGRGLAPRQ
Technique: RNA Bind-n-Seq
Molecule type: RNA
Matrix: in vitro
Concentration: 200 nM
Notes: whole 134-nt RNA, ends assumed
Together with: 150 mM LiCl
Relative to: input library
Direction: higher = stronger binding
Quantity: log2 enrichment
Each molecule: 7-deaza-guanosine replaces G
Constant ends, left off below: GGGAGUUCUACAGUCCGACGAUC … UGGAAUUCUCGGGUGUCAAGG
CUGUGCUACACAUCGUAUGUACCGAAUCGGGUUUUUUUGGGAAAAAAAGGGAAAAAAAGGGAAAGUAUUAUGUUACGCCGUUCGGAUCUG: -1.71
CAAGUCCUGUGCUACACAUCGUAUGUACCGAAUCGGAAAAAGGAAAAAGGUUUGGAAAGUAUUAUGUUACGCCGUUCGGAUCUGCACUUC: -2.14
UUCCUCAAGUCCUGUGCUACACAUCGUAUGUACCGAAUCGGAGGGAGGAGGAAAGUAUUAUGUUACGCCGUUCGGAUCUGCACUUCCAGC: -1.24
UGGGAGGUGGAUUUUGUUUAUUUUUUUAGCUCAUUUCCAGGGGUGGGAAUUUUUUUUUAAUAUGUGUCAUGAAUAAAGUUGUUUUUGAGA: 0.395
UGCUGGAGGCAAAAAAUGCCAGCCUGGCGUCGUCCAACAACGACUUGCAGGUGGCCGAGGAGCAGUACCAGAGGCUUAUGGCCAAGGUAG: -1.86
UCAAGUCCUGUGCUACACAUCGUAUGUACCGAAUCGGGAGGGUUUUUGGGUGGGAAAGUAUUAUGUUACGCCGUUCGGAUCUGCACUUCC: 0.029
CUGUGCUACACAUCGUAUGUACCGAAUCGGGGAAAAAAAGGGGUUUUUUUGGGGUUUGGGGAAAGUAUUAUGUUACGCCGUUCGGAUCUG: -1.72
UCAAGUCCUGUGCUACACAUCGUAUGUACCGAAUCGGCCCGGCCCGGGCCCGGGAAAGUAUUAUGUUACGCCGUUCGGAUCUGCACUUCC: -0.405
CUGUGCUACACAUCGUAUGUACCGAAUCGGGCCCCCCCGGCCCCCCCGGGGCCCCCCCGGGGAAAGUAUUAUGUUACGCCGUUCGGAUCU: 0.524
CAAGUCCUGUGCUACACAUCGUAUGUACCGAAUCGGUUUUUUUGGAGGUUUUUGGAAAGUAUUAUGUUACGCCGUUCGGAUCUGCACUUC: -0.502
CCUCAAGUCCUGUGCUACACAUCGUAUGUACCGAAUCGGAGGUUUUUGGAGGAAAGUAUUAUGUUACGCCGUUCGGAUCUGCACUUCCAG: -0.199

A few entries again (study 2):
GCCCCATA: -0.0911
TCAGATCA: -0.0123
GAGTATCA: 0.00899
AACGTCCG: -0.282
AGCGGAAG: -0.153
ACCTACCC: -0.27
CGGCCCAA: -0.252
AAATTGTC: 0.166
AGAACCGC: -0.0712
GGTCTTAC: -0.0969
ATTAGCTA: 0.131
CGCACAAC: 0.00093
CGTTCGAA: 0.0315
ACTTTAGA: 0.108
CCAGTTGA: -0.192
GAGACCAC: -0.166
CCGTTTAA: 0.114
